# Experimental data collected from several papers.
# Cell line: SK-OV-3
# Read-out: cell growth or viability
Structure (SMILES),technique,time,IC50
C=CC[P](c1ccccc1)(c1ccccc1)[Pt]([S]c1nc2ccccc2[nH]1)([S]c1nc2ccccc2[nH]1)[P](CC=C)(c1ccccc1)c1ccccc1,MTT,,21.7 µM
N.N.O=C([O][Pt]([OH])([Cl])[Cl])c1ccc(P(c2ccccc2)c2ccccc2)cc1.[Cl][Au],resazurin,72 h,14.3 µM
O=C(Cc1ccc2ccccc2c1)N[C@H](Cc1ccccc1)C(=O)N[C@H](Cc1ccccc1)C(=O)N[C@H](Cc1ccc(O)cc1)C(=O)N[C@H](Cc1ccc(OP(=O)(O)O)cc1)C(=O)O,MTT,,283 µg/mL
C[C@H]1C(OCCCCCCCCCCCC[P+](c2ccccc2)(c2ccccc2)c2ccccc2)O[C@@H]2O[C@@]3(C)CCC4[C@H](C)CCC1[C@]42OO3 (stereo partly shown),MTT,72 h,0.0773 µM
C=CC[P](c1ccccc1)(c1ccccc1)[Pt]([Cl])([Cl])[P](CC=C)(c1ccccc1)c1ccccc1,MTT,,34.5 µM
O=C(Cc1ccc2ccccc2c1)N[C@H](Cc1ccccc1)C(=O)N[C@H](Cc1ccccc1)C(=O)N[C@H](Cc1ccc(O)cc1)C(=O)N[C@H](Cc1ccc(O)cc1)C(=O)O,MTT,,> 500 µg/mL
O=C(O)c1ccc([PH]([Au][Cl])(c2ccccc2)c2ccccc2)cc1,resazurin,72 h,49 µM
C[C@H]1C(OCCCCCCCC[P+](c2ccccc2)(c2ccccc2)c2ccccc2)O[C@@H]2O[C@@]3(C)CCC4[C@H](C)CCC1[C@]42OO3 (stereo partly shown),MTT,72 h,0.0747 µM
O=C(Cc1ccc2ccccc2c1)N[C@H](Cc1ccccc1)C(=O)N[C@H](Cc1ccccc1)C(=O)N[C@H](Cc1ccc(OP(=O)(O)O)cc1)C(=O)N[C@H](Cc1ccc(OP(=O)(O)O)cc1)C(=O)O,MTT,,> 483 µg/mL
C[C@H]1C(OCCCCCCCCCCC[P+](c2ccccc2)(c2ccccc2)c2ccccc2)O[C@@H]2O[C@@]3(C)CCC4[C@H](C)CCC1[C@]42OO3 (stereo partly shown),MTT,72 h,0.119 µM
NC1CCCCC1N.O=C1[O][Pt]([O]C(=O)c2ccc(P(c3ccccc3)c3ccccc3)cc2)([O]C(=O)c2ccc(P(c3ccccc3)c3ccccc3)cc2)[O]C1=O.[Cl][Au].[Cl][Au],resazurin,72 h,2.99 µM
C[C@H]1C(OCCCC[P+](c2ccccc2)(c2ccccc2)c2ccccc2)O[C@@H]2O[C@@]3(C)CCC4[C@H](C)CCC1[C@]42OO3 (stereo partly shown),MTT,72 h,0.192 µM
C=CC[P](c1ccccc1)(c1ccccc1)[Pt]([S]c1ccccn1)([S]c1ccccn1)[P](CC=C)(c1ccccc1)c1ccccc1,MTT,,6.23 µM
